Assay results collected from several papers.
Protocols differ between the studies behind these lines. ± gives the spread as reported.
Spike glycoprotein: Spike glycoprotein (Severe acute respiratory syndrome coronavirus 2, UniProt P0DTC2)
S: Spike glycoprotein (S, Human coronavirus NL63, UniProt Q6Q1S2)
Chain of UniProt Q6Q1S2 (whole entry, looked up): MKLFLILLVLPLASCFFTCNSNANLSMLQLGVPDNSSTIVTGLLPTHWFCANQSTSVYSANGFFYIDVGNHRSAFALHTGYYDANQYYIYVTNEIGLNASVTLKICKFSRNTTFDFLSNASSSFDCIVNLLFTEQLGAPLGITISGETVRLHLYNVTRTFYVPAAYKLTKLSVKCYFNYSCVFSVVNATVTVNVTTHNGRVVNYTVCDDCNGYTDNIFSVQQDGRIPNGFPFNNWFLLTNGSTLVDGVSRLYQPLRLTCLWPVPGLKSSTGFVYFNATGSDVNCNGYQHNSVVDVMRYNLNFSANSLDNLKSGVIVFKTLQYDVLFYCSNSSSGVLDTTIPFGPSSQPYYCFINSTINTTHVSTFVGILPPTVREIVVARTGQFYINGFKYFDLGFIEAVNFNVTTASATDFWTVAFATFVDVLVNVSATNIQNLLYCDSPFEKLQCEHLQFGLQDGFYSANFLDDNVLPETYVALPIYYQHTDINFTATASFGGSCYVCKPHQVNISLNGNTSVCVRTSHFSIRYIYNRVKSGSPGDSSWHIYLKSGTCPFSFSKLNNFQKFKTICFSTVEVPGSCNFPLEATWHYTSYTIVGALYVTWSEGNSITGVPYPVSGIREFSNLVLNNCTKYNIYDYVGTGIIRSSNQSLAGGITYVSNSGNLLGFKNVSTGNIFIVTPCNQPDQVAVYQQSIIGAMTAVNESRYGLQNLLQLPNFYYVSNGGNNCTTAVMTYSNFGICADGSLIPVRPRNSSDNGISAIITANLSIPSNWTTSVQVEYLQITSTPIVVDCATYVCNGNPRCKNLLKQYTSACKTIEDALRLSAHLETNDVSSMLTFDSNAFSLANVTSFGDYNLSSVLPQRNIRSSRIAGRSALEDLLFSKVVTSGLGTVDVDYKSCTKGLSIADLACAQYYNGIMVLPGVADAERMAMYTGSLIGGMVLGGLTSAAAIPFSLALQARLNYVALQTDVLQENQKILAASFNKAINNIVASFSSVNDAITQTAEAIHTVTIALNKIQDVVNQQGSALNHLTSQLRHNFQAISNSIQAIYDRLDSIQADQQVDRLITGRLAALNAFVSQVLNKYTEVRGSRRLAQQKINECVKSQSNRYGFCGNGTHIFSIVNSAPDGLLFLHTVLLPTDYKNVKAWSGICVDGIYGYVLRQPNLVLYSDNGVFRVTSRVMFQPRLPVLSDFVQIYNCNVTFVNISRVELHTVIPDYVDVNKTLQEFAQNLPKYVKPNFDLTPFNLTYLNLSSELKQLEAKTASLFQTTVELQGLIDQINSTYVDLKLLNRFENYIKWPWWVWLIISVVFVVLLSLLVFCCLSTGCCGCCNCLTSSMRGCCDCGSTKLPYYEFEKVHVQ
Chain of UniProt P36544 (whole entry, looked up): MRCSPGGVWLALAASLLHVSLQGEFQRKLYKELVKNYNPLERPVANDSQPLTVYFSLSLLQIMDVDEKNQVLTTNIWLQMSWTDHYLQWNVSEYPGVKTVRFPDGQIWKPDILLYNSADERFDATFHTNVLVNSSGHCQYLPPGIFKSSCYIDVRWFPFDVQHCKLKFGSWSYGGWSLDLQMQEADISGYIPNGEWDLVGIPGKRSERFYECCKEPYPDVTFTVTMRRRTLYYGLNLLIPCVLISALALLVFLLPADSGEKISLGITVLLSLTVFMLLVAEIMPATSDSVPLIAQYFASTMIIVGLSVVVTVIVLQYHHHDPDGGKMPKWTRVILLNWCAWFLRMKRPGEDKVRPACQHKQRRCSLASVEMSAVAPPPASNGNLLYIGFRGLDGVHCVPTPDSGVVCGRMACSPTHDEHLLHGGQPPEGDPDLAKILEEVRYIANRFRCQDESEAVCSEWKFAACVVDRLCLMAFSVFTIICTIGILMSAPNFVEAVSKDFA
Chain of UniProt Q14524 (whole entry, looked up): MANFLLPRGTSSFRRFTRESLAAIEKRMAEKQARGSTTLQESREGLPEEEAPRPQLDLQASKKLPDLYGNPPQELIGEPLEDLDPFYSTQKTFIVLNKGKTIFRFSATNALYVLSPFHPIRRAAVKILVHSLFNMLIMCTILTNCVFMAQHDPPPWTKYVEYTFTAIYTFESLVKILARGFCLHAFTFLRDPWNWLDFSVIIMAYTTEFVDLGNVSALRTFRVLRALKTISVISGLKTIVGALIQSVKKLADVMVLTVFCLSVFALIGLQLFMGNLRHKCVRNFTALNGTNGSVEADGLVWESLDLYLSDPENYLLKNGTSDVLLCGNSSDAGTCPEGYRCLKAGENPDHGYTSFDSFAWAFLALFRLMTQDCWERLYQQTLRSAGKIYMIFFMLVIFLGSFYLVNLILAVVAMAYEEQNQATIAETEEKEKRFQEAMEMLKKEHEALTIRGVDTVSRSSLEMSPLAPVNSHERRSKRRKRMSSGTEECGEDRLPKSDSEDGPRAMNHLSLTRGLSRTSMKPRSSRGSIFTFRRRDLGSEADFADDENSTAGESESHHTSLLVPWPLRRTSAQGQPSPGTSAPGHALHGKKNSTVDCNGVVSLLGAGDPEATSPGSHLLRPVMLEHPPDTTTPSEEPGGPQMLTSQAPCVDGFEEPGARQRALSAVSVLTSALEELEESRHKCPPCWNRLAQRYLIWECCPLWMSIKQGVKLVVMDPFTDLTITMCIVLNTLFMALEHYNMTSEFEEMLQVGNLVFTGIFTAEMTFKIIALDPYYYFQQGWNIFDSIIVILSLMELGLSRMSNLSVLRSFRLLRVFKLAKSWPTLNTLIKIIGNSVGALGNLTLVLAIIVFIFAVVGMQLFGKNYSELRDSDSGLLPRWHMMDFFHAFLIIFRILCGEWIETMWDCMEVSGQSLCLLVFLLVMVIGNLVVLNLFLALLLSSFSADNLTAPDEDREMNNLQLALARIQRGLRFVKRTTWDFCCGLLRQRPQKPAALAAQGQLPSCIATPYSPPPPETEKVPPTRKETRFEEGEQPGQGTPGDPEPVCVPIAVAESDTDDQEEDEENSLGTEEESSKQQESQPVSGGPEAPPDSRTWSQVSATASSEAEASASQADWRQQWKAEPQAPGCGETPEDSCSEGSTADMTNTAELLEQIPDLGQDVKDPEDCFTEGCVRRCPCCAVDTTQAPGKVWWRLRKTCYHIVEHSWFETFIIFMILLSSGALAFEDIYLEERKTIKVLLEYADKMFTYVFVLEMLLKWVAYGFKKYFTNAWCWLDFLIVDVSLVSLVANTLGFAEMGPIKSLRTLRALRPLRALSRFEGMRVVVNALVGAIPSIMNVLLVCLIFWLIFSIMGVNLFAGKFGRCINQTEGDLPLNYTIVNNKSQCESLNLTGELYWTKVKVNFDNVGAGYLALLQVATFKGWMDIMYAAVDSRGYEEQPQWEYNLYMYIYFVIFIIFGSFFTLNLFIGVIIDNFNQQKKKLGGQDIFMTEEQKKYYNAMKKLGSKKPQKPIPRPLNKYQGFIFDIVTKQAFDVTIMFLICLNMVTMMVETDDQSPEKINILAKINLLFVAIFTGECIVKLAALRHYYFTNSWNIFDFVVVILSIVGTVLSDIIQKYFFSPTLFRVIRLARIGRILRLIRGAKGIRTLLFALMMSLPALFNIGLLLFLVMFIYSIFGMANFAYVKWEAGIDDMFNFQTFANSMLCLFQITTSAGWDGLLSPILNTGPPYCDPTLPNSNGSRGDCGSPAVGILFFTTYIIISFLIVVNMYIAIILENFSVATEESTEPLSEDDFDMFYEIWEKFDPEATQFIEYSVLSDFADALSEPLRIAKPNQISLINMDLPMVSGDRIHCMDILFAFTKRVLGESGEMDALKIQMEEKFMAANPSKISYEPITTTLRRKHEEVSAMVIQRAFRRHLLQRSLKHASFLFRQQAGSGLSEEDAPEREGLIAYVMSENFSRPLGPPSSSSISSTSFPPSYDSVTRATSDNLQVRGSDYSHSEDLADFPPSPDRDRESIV
Chain of UniProt P22459 (whole entry, looked up): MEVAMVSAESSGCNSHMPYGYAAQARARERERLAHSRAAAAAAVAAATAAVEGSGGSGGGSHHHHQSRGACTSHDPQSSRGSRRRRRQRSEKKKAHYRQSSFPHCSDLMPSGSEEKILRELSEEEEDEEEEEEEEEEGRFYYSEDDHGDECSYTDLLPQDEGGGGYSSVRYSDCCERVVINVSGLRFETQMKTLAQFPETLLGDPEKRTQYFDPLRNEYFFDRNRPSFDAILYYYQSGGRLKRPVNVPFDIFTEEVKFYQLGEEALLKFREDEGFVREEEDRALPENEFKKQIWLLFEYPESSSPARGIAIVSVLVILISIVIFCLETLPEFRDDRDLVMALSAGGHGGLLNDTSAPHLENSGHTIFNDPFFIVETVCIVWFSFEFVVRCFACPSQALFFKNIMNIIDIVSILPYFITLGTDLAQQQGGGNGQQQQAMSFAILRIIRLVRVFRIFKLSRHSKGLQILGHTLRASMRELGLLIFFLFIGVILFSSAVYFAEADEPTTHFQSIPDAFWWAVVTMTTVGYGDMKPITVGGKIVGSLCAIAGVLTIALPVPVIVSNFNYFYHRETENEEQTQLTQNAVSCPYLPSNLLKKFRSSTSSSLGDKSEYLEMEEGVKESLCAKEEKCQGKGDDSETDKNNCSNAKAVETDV

CCN1C[C@H](C)n2c(c(O)c3c(=O)n(Cc4ccc(F)c(Cl)c4)nc(C(=O)NC)c32)C1=O  IC50 (Gag-Pol polyprotein, integrase (gag-pol, Human immunodeficiency virus 1, UniProt P12497, N1302H); concerted integration, inhibitor, refers to: donor-donor products; 3 h, 37 °C): 26 ± 8 nM
Cc1cn([C@H]2C[C@H](N=[N+]=[N-])[C@@H](CO[P@](=O)(O)O[P@](=O)(O)OP(=O)(O)O)O2)c(=O)[nH]c1=O  IC50 (Gag-Pol polyprotein, reverse transcriptase (gag-pol, Human immunodeficiency virus type 1 group M subtype B, UniProt P04585, K653A); inhibitor; HIV-1): 559 nM
Cn1cnc(Cn2c(=O)[nH]/c(=N\c3cc4cn(C)nc4cc3Cl)n(Cc3cc(F)c(F)cc3F)c2=O)n1  dry mouth TEAE, Severe severity (human, all renal function groups; oral, 375 mg): 0%
C[C@@H]1O[C@@H](O[C@@H]2[C@@H](O)[C@H](OCCc3ccc(O)c(O)c3)O[C@H](CO)[C@H]2OC(=O)/C=C/c2ccc(O)c(O)c2)[C@H](O)[C@H](O)[C@H]1O  Kd (Spike glycoprotein; binding, BLI): 13900 nM
COc1cc(NC(=O)c2ccc(-c3ccc(Cl)cc3)o2)cc(OC)c1  IC50 (Sodium channel protein type 5 subunit alpha (SCN5A, Homo sapiens, UniProt Q14524); late sodium current, whole-cell voltage clamp; ND7/23 transfected; pH 7.4, TTX 200 nM, with: ATX-II 100 nM): ~5000 nM
CC1(C)[C@@H](O)CC[C@]2(C)[C@H]3C(=O)C=C4[C@@H]5C[C@@](C)(C(=O)O)CC[C@]5(C)CC[C@@]4(C)[C@]3(C)CC[C@@H]12  Kd (Spike glycoprotein; binding, BLI): 38700 nM
CC[C@H](C)[C@H](NC(=O)[C@H](CC(C)C)NC(=O)[C@H](Cc1c[nH]c2ccccc12)NC(=O)[C@H](CCC(N)=O)NC(=O)[C@@H](NC(=O)[C@H](Cc1ccccc1)NC(=O)[C@H](C)NC(=O)[C@H](CCCCNC(=O)COCCOCCNC(=O)COCCOCCNC(=O)CC[C@H](NC(=O)CCCCCCCCCCCCCCCCCCC(=O)O)C(=O)O)NC(=O)[C@H](CCC(N)=O)NC(=O)[C@H](C)NC(=O)[C@@H](NC(=O)[C@H](CCCCN)NC(=O)[C@H](CC(=O)O)NC(=O)[C@H](CC(C)C)NC(=O)C(C)(C)NC(=O)[C@@H](NC(=O)[C@H](CO)NC(=O)[C@H](Cc1ccc(O)cc1)NC(=O)[C@H](CC(=O)O)NC(=O)[C@H](CO)NC(=O)[C@@H](NC(=O)[C@H](Cc1ccccc1)NC(=O)[C@@H](NC(=O)CNC(=O)[C@H](CCC(=O)O)NC(=O)C(C)(C)NC(=O)[C@@H](N)Cc1ccc(O)cc1)[C@@H](C)O)[C@@H](C)O)[C@@H](C)CC)[C@@H](C)CC)C(C)C)C(=O)N[C@@H](C)C(=O)NCC(=O)NCC(=O)N1CCC[C@H]1C(=O)N[C@@H](CO)C(=O)N[C@@H](CO)C(=O)NCC(=O)N[C@@H](C)C(=O)N1CCC[C@H]1C(=O)N1CCC[C@H]1C(=O)N1CCC[C@H]1C(=O)N[C@@H](CO)C(N)=O  severe hypoglycaemia (healthy human; 1.0 mg, single ascending dose): 0%
C[C@H](Cn1cnc2c(N)ncnc21)OCP(=O)(O)O  IC50 (Gag-Pol polyprotein, reverse transcriptase (gag-pol, Human immunodeficiency virus type 1 group M subtype B, UniProt P04585, K653R); inhibitor; HIV-1): 1056 ± 1.22 nM
NCCc1c(SSc2[nH]c3cc(Br)ccc3c2CCN)[nH]c2cc(Br)ccc12  IC50 (Potassium voltage-gated channel subfamily A member 4 (KCNA4, Homo sapiens, UniProt P22459); peak potassium current, inhibitor, automated whole-cell patch clamp; CHO-K1, tetracycline-inducible): 1100 nM
Nc1ncnc2c([C@@H]3N[C@H](CO)[C@@H](O)[C@H]3O)c[nH]c12  inhibition (Marburg virus; viral replication; HeLa, Musoke; 0.8 µM): 23%
CC[C@H](C)[C@H](NC(=O)[C@H](CC(=O)O)NC(=O)[C@H](CO)NC(=O)[C@H](CC(=O)O)NC(=O)[C@H](CCCCN)NC(=O)[C@H](CCC(N)=O)NC(=O)[C@H](Cc1ccc(O)cc1)NC(=O)[C@H](CCC(=O)O)NC(=O)[C@H](CC(C)C)NC(=O)[C@@H](NC(=O)[C@H](CCC(=O)O)NC(=O)[C@H](CCSC)NC(=O)[C@@H](NC(=O)[C@H](CC(C)C)NC(=O)[C@H](CO)NC(=O)[C@H](CCC(=O)O)NC(=O)[C@H](CC(C)C)NC(=O)[C@H](CC(C)C)NC(=O)[C@H](CCCCN)NC(=O)[C@H](Cc1ccccc1)NC(=O)[C@H](CCC(=O)O)NC(=O)[C@H](CCC(=O)O)NC(=O)[C@H](Cc1ccc(O)cc1)NC(=O)[C@H](CC(C)C)NC(=O)[C@H](CC(C)C)NC(=O)[C@@H](NC(=O)[C@H](CCCCN)NC(=O)[C@@H](N)CC(C)C)C(C)C)[C@@H](C)CC)[C@@H](C)CC)C(=O)N[C@@H](CCCCN)C(=O)N[C@@H](CCC(=O)O)C(=O)N[C@@H](CC(N)=O)C(=O)N[C@@H](C)C(=O)N[C@@H](CCC(=O)O)C(=O)N[C@@H](CC(=O)O)C(=O)N[C@H](C(=O)N[C@@H](CCCCN)C(=O)O)[C@@H](C)O  IC50 (S; cell-based): > 5000 nM
COP(=O)(OC)Oc1ccc([N+](=O)[O-])cc1  IC50 (rat liver carboxylesterase; enzyme activity, inhibitor; rat, postnatal day 1, liver homogenate; with: p-nitrophenyl valerate): 0.6 nM
CC1Oc2cc3c(-c4c(O)cc(O)c5c(O)c6c(cc45)OC(C)C(C)C6=O)c(O)cc(O)c3c(O)c2C(=O)C1C (stereo not drawn)  IC50 (Replicase polyprotein 1ab, 3C-like proteinase (Feline coronavirus, UniProt Q98VG9); protease activity, inhibitor; with: 6 µM fluorogenic substrate): 6360 ± 2150 nM
CCN(CC)c1nc(C)cc(OP(=S)(OC)OC)n1  IC50 (uncharacterized protein (Anopheles coluzzii, UniProt A0A6E8VQK1); α-naphthyl acetate hydrolysis, inhibitor; Sf9 cell homogenate; 10 min preincubation): > 450000 nM
CCOP(=O)(OCC)Oc1ccc([N+](=O)[O-])cc1  IC50 (rat liver carboxylesterase; enzyme activity, inhibitor; rat, postnatal day 12, liver homogenate; with: p-nitrophenyl valerate): 0.14 nM
CC[C@H](C)[C@H](NC(=O)[C@H](CC(=O)O)NC(=O)[C@H](CCCCN)NC(=O)[C@H](CC(C)C)NC(=O)[C@H](CC(N)=O)NC(=O)[C@@H](NC(=O)[C@H](Cc1ccc(O)cc1)NC(=O)[C@H](CO)NC(=O)[C@H](CCC(N)=O)NC(=O)[C@H](CCC(=O)O)NC(=O)[C@H](CC(C)C)NC(=O)[C@H](CCCCN)NC(=O)[C@H](CCCCN)NC(=O)[C@@H](NC(=O)[C@H](C)NC(=O)[C@H](CCC(=O)O)NC(=O)[C@H](CCC(=O)O)NC(=O)[C@H](CC(C)C)NC(=O)[C@H](CCCCN)NC(=O)[C@H](CCCCN)NC(=O)[C@H](CCSC)NC(=O)[C@H](CCC(=O)O)NC(=O)[C@H](CC(=O)O)NC(=O)[C@H](CCC(N)=O)NC(=O)[C@H](CC(C)C)NC(=O)[C@H](CC(=O)O)NC(=O)[C@H](CC(C)C)NC(=O)[C@H](Cc1ccccc1)NC(=O)[C@@H](NC(=O)[C@@H](NC(=O)[C@H](CC(N)=O)NC(=O)[C@@H](NC(=O)[C@H](Cc1ccc(O)cc1)NC(=O)[C@H](CC(=O)O)NC(=O)[C@H](CC(C)C)NC(=O)[C@@H](N)CO)[C@@H](C)CC)C(C)C)[C@@H](C)O)[C@@H](C)CC)[C@@H](C)CC)C(=O)O  IC50 (S): 780 ± 100 nM
CNC(=O)[C@@H](NC(=O)[C@H](CC(C)C)[C@H](O)C(=O)NO)C(C)(C)C  viability difference (C2C12; 10 µM, with: MH venom; baseline: venom alone): 13.5%
C=C1CCCC2=NC[C@H](C)[C@@H](C)C[C@@]23CCC(C(=O)O)=C[C@@H]3[C@@H]2O[C@]3(C[C@H]4CCC[C@@]5(CC[C@@]6(O[C@@H](CC[C@@]6(C)O)C1)O5)O4)C[C@@H](C)[C@@H](O)[C@H]2O3  IC50 (Neuronal acetylcholine receptor subunit alpha-7 (CHRNA7, Homo sapiens, UniProt P36544); ion current, antagonist, two-electrode voltage clamp; oocytes): 0.107 nM

For quick reference, copied from above:
Cn1cnc(Cn2c(=O)[nH]/c(=N\c3cc4cn(C)nc4cc3Cl)n(Cc3cc(F)c(F)cc3F)c2=O)n1  dry mouth TEAE, Severe severity (human, all renal function groups; oral, 375 mg): 0%
C[C@@H]1O[C@@H](O[C@@H]2[C@@H](O)[C@H](OCCc3ccc(O)c(O)c3)O[C@H](CO)[C@H]2OC(=O)/C=C/c2ccc(O)c(O)c2)[C@H](O)[C@H](O)[C@H]1O  Kd (Spike glycoprotein; binding, BLI): 13900 nM
